{"data": "Measured values gathered from unrelated publications", "UCHL1": "Ubiquitin carboxyl-terminal hydrolase isozyme L1 (UCHL1, Homo sapiens, UniProt P09936)", "note": "Each line is one published result; not all experiments were run side by side. Numbers after ± are the reported error.", "UniProt P09936, sequence (whole entry, looked up)": "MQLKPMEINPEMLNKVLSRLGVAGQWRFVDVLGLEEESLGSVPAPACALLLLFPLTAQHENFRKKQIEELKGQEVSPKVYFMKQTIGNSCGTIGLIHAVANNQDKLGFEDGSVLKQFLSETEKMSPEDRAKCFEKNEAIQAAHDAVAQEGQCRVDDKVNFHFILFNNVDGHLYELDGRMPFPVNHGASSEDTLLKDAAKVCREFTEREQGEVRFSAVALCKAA"}
{"Structure (SMILES)": "CC(C)NCC(O)COc1cccc2ccccc12 (stereo not drawn)", "test system": "male Hartley guinea pigs, anaesthetized", "conditions": "intravenous, 0.3 mg/kg group, baseline before infusion", "quantity": "mean blood pressure", "value": "41 ± 0.2 mmHg"}
{"Structure (SMILES)": "CC[C@H](C)[C@@H]1NC(=O)[C@H](CCCNC(=N)N)NC(=O)[C@H](CC(=O)O)NC(=O)[C@H](CC(C)C)NC(=O)[C@H](CCCCN)NC(=O)[C@H](CC(C)C)NC(=O)CNC(=O)[C@H](Cc2ccccc2)NC(=O)[C@@H](NC(=O)CNC(=O)[C@H](CCCCN)NC(=O)[C@H](CO)NC(=O)[C@H](CC(C)C)NC(=O)CNC(=O)[C@H](CCCCN)NC(=O)[C@H](CCCCN)NC(=O)[C@H](CC(N)=O)NC(=O)[C@H](C)NC(=O)CNC(=O)[C@H](CCCCN)NC(=O)[C@H](Cc2ccc(O)cc2)NC(=O)[C@H](CCCCN)NC(=O)[C@H](CCCNC(=N)N)NC(=O)[C@H](C)NC(=O)[C@H](CC(N)=O)NC(=O)[C@@H]2CCCN2C(=O)[C@H](Cc2c[nH]cn2)NC(=O)[C@H](CCC(=O)O)NC(=O)[C@H](CCC(N)=O)NC(=O)CNC(=O)[C@@H]2CCCN2)CSSC[C@@H](C(=O)O)NC(=O)CNC(=O)[C@H](CC(C)C)NC(=O)CNC(=O)[C@H](CO)NC(=O)[C@H](CCSC)NC(=O)[C@H](CO)NC(=O)CNC1=O", "test system": "human, plasma", "conditions": "concentration not given, first 6 months", "quantity": "mean Cmax", "value": "189 ng/mL"}
{"Structure (SMILES)": "CC(C)[C@@H]1CC[C@@H](C)C[C@@H]1O", "test": "osmotic fragility", "test system": "human erythrocytes", "conditions": "100 µM", "quantity": "mean erythrocyte fragility", "value": "0.67%"}
{"Structure (SMILES)": "O=C(CCCN1CCC(O)(c2ccc(Cl)cc2)CC1)c1ccc(F)cc1", "test system": "male Hartley guinea pigs, anaesthetized", "conditions": "intravenous, 0.01 mg/kg group, baseline before infusion", "quantity": "mean blood pressure", "value": "37 ± 0.1 mmHg"}
{"Structure (SMILES)": "CC[C@H](C)[C@H](NC(=O)CN)C(=O)N[C@@H](CC(C)C)C(=O)N[C@@H](CC(=O)O)C(=O)N[C@@H](C)C(=O)N[C@H](C(=O)N[C@@H](CC(C)C)C(=O)N[C@@H](CC(=O)O)C(=O)N[C@@H](C)C(=O)N[C@H](C(=O)N[C@@H](CCCCN)C(=O)N[C@@H](C)C(=O)N[C@H](C(=O)N[C@@H](C)C(=O)N[C@@H](CCCCN)C(=O)N[C@@H](C)C(=O)N[C@H](C(=O)N[C@@H](CCCCN)C(=O)N[C@@H](C)C(=O)N[C@@H](CCCCN)C(=O)N[C@@H](C)C(=O)NCC(N)=O)[C@@H](C)CC)[C@@H](C)CC)[C@@H](C)CC)[C@@H](C)CC", "test": "circular dichroism at 222 nm", "test system": "10 mM SDS", "conditions": "100 µM, pH 4.0", "quantity": "mean residue ellipticity", "value": "-18600 deg cm2/dmol"}
{"Structure (SMILES)": "CC1(C)CCC(CN2CCN(c3ccc(C(=O)NS(=O)(=O)c4ccc(NCC5CCOCC5)c([N+](=O)[O-])c4)c(Oc4cnc5[nH]ccc5c4)c3)CC2)=C(c2ccc(Cl)cc2)C1", "test system": "chronic lymphocytic leukaemia patients", "conditions": "dose not given, to lowest level", "how to read": "baseline: baseline at treatment start", "quantity": "mean decrease in absolute neutrophil count", "value": "69%"}
{"Structure (SMILES)": "CC[C@H](C)[C@H](NC(=O)CN)C(=O)N[C@@H](C)C(=O)N[C@@H](CCCCN)C(=O)N[C@@H](Cc1ccccc1)C(=O)N[C@H](C(=O)N[C@@H](CCCCN)C(=O)N[C@@H](CCCCN)C(=O)N[C@H](C(=O)N[C@@H](C)C(=O)N[C@@H](CCCCN)C(=O)N[C@@H](C)C(=O)N[C@@H](CC(C)C)C(=O)N[C@@H](CCCNC(=N)N)C(N)=O)[C@@H](C)CC)[C@@H](C)CC", "test": "circular dichroism at 222 nm", "test system": "30% TFE", "conditions": "100 µM", "quantity": "mean residue ellipticity", "value": "-6710 deg cm2/dmol"}
{"Structure (SMILES)": "CC(C)NCC(O)c1ccc(NS(C)(=O)=O)cc1 (racemic)", "test system": "male Hartley guinea pigs, anaesthetized", "conditions": "intravenous, 10 mg/kg over 10 min, after infusion", "quantity": "mean blood pressure", "value": "25 ± 0.4 mmHg"}
{"Structure (SMILES)": "CC[C@H](C)[C@H](NC(=O)CN)C(=O)N[C@@H](CC(C)C)C(=O)N[C@@H](CC(=O)O)C(=O)N[C@@H](C)C(=O)N[C@H](C(=O)N[C@@H](CCCCN)C(=O)N[C@@H](C)C(=O)N[C@H](C(=O)N[C@@H](C)C(=O)N[C@@H](CCCCN)C(=O)N[C@@H](C)C(=O)N[C@@H](C)C(=O)NCC(N)=O)[C@@H](C)CC)[C@@H](C)CC", "test": "circular dichroism at 222 nm", "test system": "10 mM SDS", "conditions": "100 µM, pH 4.0", "quantity": "mean residue ellipticity", "value": "-4760 deg cm2/dmol"}
{"Structure (SMILES)": "COc1ccccc1OCCNCC(O)COc1cccc2[nH]c3ccccc3c12 (stereo not drawn)", "test": "optical microscopy", "test system": "2 mg/mL Kollidon VA64", "conditions": "60 min, supersaturation ratio 10", "quantity": "mean precipitate particle size", "value": "5.35 ± 0.45 µm"}
{"Structure (SMILES)": "CCCCc1oc2ccccc2c1C(=O)c1cc(I)c(OCCN(CC)CC)c(I)c1", "test system": "male Hartley guinea pigs, anaesthetized", "conditions": "intravenous, 5 mg/kg group, baseline before infusion", "quantity": "mean blood pressure", "value": "40 ± 0.1 mmHg"}
{"Structure (SMILES)": "Cc1c(C(=O)O)ccc2c3n(nc12)[C@@H]1[C@H](C3)N(CC2CC2)[C@@]2(C(=O)Nc3cc(Cl)ccc32)[C@H]1c1cccc(Cl)c1F", "test system": "Göttingen minipig, female, plasma", "conditions": "intravenous", "quantity": "mean residence time", "value": "4.8 h"}
{"Structure (SMILES)": "CC[C@H](C)[C@H](NC(=O)CN)C(=O)N[C@@H](CC(C)C)C(=O)N[C@@H](CC(=O)O)C(=O)N[C@@H](C)C(=O)N[C@H](C(=O)N[C@@H](CCCCN)C(=O)N[C@@H](C)C(=O)N[C@H](C(=O)N[C@@H](C)C(N)=O)[C@@H](C)CC)[C@@H](C)CC", "test": "circular dichroism at 222 nm", "test system": "10 mM SDS", "conditions": "100 µM, pH 4.0", "quantity": "mean residue ellipticity", "value": "-1880 deg cm2/dmol"}
{"Structure (SMILES)": "Cc1ccc(C(=O)Nc2ccnc(S(N)(=O)=O)c2)c(N2CCCC(F)(F)CC2)n1", "test system": "rhesus macaque, plasma", "conditions": "oral, 10 mg/kg, noxious stimulus test", "quantity": "mean unbound plasma concentration", "value": "470 nM"}
{"Structure (SMILES)": "O=C(CCl)NC1CN(S(=O)(=O)c2ccc3c(c2)OCCO3)C1", "tested on": "UCHL1", "test": "covalent, intact protein LC-MS", "conditions": "12.5 µM", "quantity": "labelling", "value": "14.1%"}
{"Structure (SMILES)": "CC[C@H](C)[C@H](NC(=O)[C@H](C)N)C(=O)N[C@@H](CCCCN)C(=O)N[C@@H](C)C(=O)N[C@H](C(=O)N[C@@H](C)C(=O)N[C@@H](CCCCN)C(=O)N[C@@H](C)C(=O)N[C@@H](C)C(=O)NCC(N)=O)[C@@H](C)CC", "test": "circular dichroism at 222 nm", "test system": "10 mM SDS", "conditions": "100 µM, pH 4.0", "quantity": "mean residue ellipticity", "value": "-2180 deg cm2/dmol"}
{"Structure (SMILES)": "COc1cc(/C=C/C(=O)CC(=O)/C=C/c2ccc(O)c(OC)c2)ccc1O", "test": "osmotic fragility", "test system": "human erythrocytes", "conditions": "20 µM", "quantity": "mean erythrocyte fragility", "value": "0.67%"}
{"Structure (SMILES)": "N#Cc1cc(C(C=O)=C(Cl)c2ccccc2)c([N+](=O)[O-])cc1C#N", "tested on": "UCHL1", "test": "covalent, intact protein LC-MS", "conditions": "12.5 µM", "quantity": "labelling", "value": "13.8%"}
{"note": "Excerpt of the above:"}
{"Structure (SMILES)": "COc1ccccc1OCCNCC(O)COc1cccc2[nH]c3ccccc3c12 (stereo not drawn)", "test": "optical microscopy", "test system": "2 mg/mL Kollidon VA64", "conditions": "60 min, supersaturation ratio 10", "quantity": "mean precipitate particle size", "value": "5.35 ± 0.45 µm"}
{"Structure (SMILES)": "CC[C@H](C)[C@@H]1NC(=O)[C@H](CCCNC(=N)N)NC(=O)[C@H](CC(=O)O)NC(=O)[C@H](CC(C)C)NC(=O)[C@H](CCCCN)NC(=O)[C@H](CC(C)C)NC(=O)CNC(=O)[C@H](Cc2ccccc2)NC(=O)[C@@H](NC(=O)CNC(=O)[C@H](CCCCN)NC(=O)[C@H](CO)NC(=O)[C@H](CC(C)C)NC(=O)CNC(=O)[C@H](CCCCN)NC(=O)[C@H](CCCCN)NC(=O)[C@H](CC(N)=O)NC(=O)[C@H](C)NC(=O)CNC(=O)[C@H](CCCCN)NC(=O)[C@H](Cc2ccc(O)cc2)NC(=O)[C@H](CCCCN)NC(=O)[C@H](CCCNC(=N)N)NC(=O)[C@H](C)NC(=O)[C@H](CC(N)=O)NC(=O)[C@@H]2CCCN2C(=O)[C@H](Cc2c[nH]cn2)NC(=O)[C@H](CCC(=O)O)NC(=O)[C@H](CCC(N)=O)NC(=O)CNC(=O)[C@@H]2CCCN2)CSSC[C@@H](C(=O)O)NC(=O)CNC(=O)[C@H](CC(C)C)NC(=O)CNC(=O)[C@H](CO)NC(=O)[C@H](CCSC)NC(=O)[C@H](CO)NC(=O)CNC1=O", "test system": "human, plasma", "conditions": "concentration not given, first 6 months", "quantity": "mean Cmax", "value": "189 ng/mL"}
